# Measurements collected from several papers.
# Each line is one published result; not all experiments were run side by side. ± marks the error that the study gave.
SMILES,target or system,test,system,conditions,how to read,measurement,result
CNCC12C3CCC4C3C3C(CCC31)C42,Influenza A virus,viral replication,"MDCK, H3N2 A/HK/7/87",,,EC50,> 100 µM
CCCCCCCCC(=O)NCc1ccc(O)c(OC)c1,mouse mAb 1-F12,"antibody binding, indirect competitive ELISA",,with: coating antigen 3-OVA,,IC50,> 4 µg/mL
C[C@]12CC[C@H](O)CC1=CC[C@@H]1[C@@H]2CC[C@]2(C)C(=O)CC[C@@H]12,glucose-6-phosphate dehydrogenase (human),inhibitor,HepG2,"100 µM, 2 h",,6-phosphogluconate level,no effect
Nc1ccc(/C=C/C(=O)N2CCc3c(oc4c(-c5ccc(F)cc5)cc(-c5ccc(C(=O)N6CCC(F)(F)CC6)cn5)cc34)C2)cn1,,western blot,"mice, Pan02 allograft, tumour",100 mg/kg,,PAK4 and p-PAK4 levels,decreased
CSCC[C@@H]1NC(=O)[C@H](CCCNC(=N)N)NC(=O)[C@H](Cc2ccc(O)cc2)NC(=O)[C@@H](NC(=O)[C@H](CCCNC(=N)N)NC(=O)[C@H](CCCCN)NC(=O)[C@H](CC(=O)O)NC(=O)[C@H](C)N)CSSC[C@@H](C(=O)N[C@@H](CCCNC(=N)N)C(=O)N[C@@H](Cc2ccc(O)cc2)C(=O)NCC(=O)O)NC(=O)CNC(=O)[C@H](CCCCN)NC(=O)[C@H](CCCCN)NC(=O)[C@@H]2CSSC[C@H](NC1=O)C(=O)N[C@@H](CCC(N)=O)C(=O)N[C@@H](CCCNC(=N)N)C(=O)N[C@@H](Cc1ccc(O)cc1)C(=O)N[C@@H](Cc1c[nH]cn1)C(=O)N[C@@H](CCC(N)=O)C(=O)N[C@@H](CCCNC(=N)N)C(=O)N[C@@H](CCCNC(=N)N)C(=O)N[C@@H](CCC(N)=O)C(=O)N[C@@H](CCCNC(=N)N)C(=O)N[C@@H](CCCNC(=N)N)C(=O)N[C@@H](CCC(N)=O)C(=O)N2,Kv1.2 (human),"ion current, inhibitor",,"concentration not given, pH 7.4",,inhibition,50.1 ± 0.8%
CC(C)C1=C(OC(=O)Cc2ccccc2)C(=O)C2=C(C=C[C@H]3C(C)(C)CCC[C@]23C)C1=O,,"total antioxidant capacity, phosphomolybdenum method",,,,EC50,412 µM
Cc1ccccc1N1C(=O)/C(=C/c2ccc(OCc3cccc(C(=O)O)c3)cc2)C(=O)NC1=S,"LYP (PTPN22), human",immunoblot,Jurkat TAg,"0 or 3 min, with: TCR stimulation",,lowest effective concentration,0.4 µM
CC[C@H](C)[C@H](NC(=O)[C@@H](NC(=O)[C@H](CC(=O)O)NC(C)=O)[C@@H](C)O)C(=O)N[C@@H](CCCNC(=N)N)C(=O)N[C@@H](CC(C)C)C(=O)N[C@@H](CC(C)C)C(=O)N[C@@H](Cc1ccccc1)C(=O)N[C@@H](CCC(N)=O)C(=O)N[C@@H](CC(C)C)C(=O)N[C@@H](CCSC)C(=O)N[C@@H](CCCNC(=N)N)C(=O)N1CCC[C@H]1C(=O)N1CCC[C@H]1C(=O)N[C@@H](CC(N)=O)C(=O)N[C@@H](CCSC)C(=O)N[C@H](C(=O)N1CCC[C@H]1C(=O)N[C@@H](C)C(=O)N[C@H](C(=O)N[C@@H](CC(N)=O)C(=O)N[C@@H](C)C(N)=O)C(C)C)[C@@H](C)O,,measured: HA-51 tetramer,"antigen-experienced tetramer+ CD4 T cells, healthy adults, HLA-DRB1*0101",dose not given,,α4β7− CCR9+ cells,11.8%
CC/C=C\C/C=C\C/C=C\C/C=C\C/C=C\C/C=C\CCC(=O)Nc1ccn(C2OC(CO)C(O)C2(F)F)c(=O)n1 (stereo not drawn),A498,NCI60 screen,,,,CC50,51.9 µM
CCC1(CC)C2CC3CC(C2)CC1(N(C)C)C3,Influenza A virus,viral replication,"MDCK, A/FM/1/47 (H1N1)",,,EC50,43 ± 12 µM
CCN(Cc1ccccc1)C(=O)CCc1nc(CN2CCN(C(=O)Cc3ccc(OC)c(OC)c3)CC2)no1,,"cold withdrawal threshold, cold plate",mouse CCI model,"1 mg/kg, 4 °C, dosing from day 11",,onset day,11 days
CCCCCc1cc(O)c2c(c1)OC(C)(C)C1CCC(C)=CC21 (stereo not drawn),,,"rabbit, α-chymotrypsin glaucoma model","topical, 50 µL of 0.8% w/v, 0.5 h",baseline: baseline,intraocular pressure,64.8%

# Repeated from above:
SMILES,target or system,test,system,conditions,how to read,measurement,result
CC/C=C\C/C=C\C/C=C\C/C=C\C/C=C\C/C=C\CCC(=O)Nc1ccn(C2OC(CO)C(O)C2(F)F)c(=O)n1 (stereo not drawn),A498,NCI60 screen,,,,CC50,51.9 µM
